{"data": "Results collected from several papers", "rep main protease": "Replicase polyprotein 1ab, main protease (rep, Severe acute respiratory syndrome coronavirus 2, UniProt P0DTD1)", "rep papain-like protease": "Replicase polyprotein 1ab, papain-like protease (rep, Severe acute respiratory syndrome coronavirus 2, UniProt P0DTD1)", "note": "Each line is one published result; not all experiments were run side by side. “And” joins repeats or separate records; there may be more than shown. ± marks the error that the study gave."}
{"Compound": "CC1CC(c2ccc(C(=O)O)cc2C#N)=NN1c1ccc(C#N)c(Cl)c1 (centres unmarked)", "target": "Replicase polyprotein 1ab, nsp14 methyltransferase (rep, Severe acute respiratory syndrome coronavirus 2, UniProt P0DTD1)", "measurement": "lipophilic ligand efficiency", "result": 1.7}
{"Compound": "O=C(CCc1ccccc1)NOC(=O)OCc1ccccc1", "target": "rep main protease", "assay": "enzyme inactivation, inhibitor", "setting": "1 to 30 µM", "measurement": "kinact", "result": "0.0075 ± 0.0005 s⁻¹"}
{"Compound": "Cc1ccc(OCCN(C)C)cc1C(=O)N[C@H](C)c1cc(-c2cnn(C3CNC3)c2)nc2ccccc12", "target": "rep papain-like protease", "assay": "reporter gene, cell-based", "measurement": "GFP/mCherry signal ratio", "result": "109 and 96.5 and 101 and 111 and 82 and 107"}
{"Compound": "CC(=O)N[C@@H](Cc1ccc(O)cc1)C(=O)N[C@@H](CC(=O)O)C(=O)N[C@H]1CCC[C@@H]1C(=O)N[C@@H](Cc1ccccc1)C(=O)N[C@@H](Cc1ccc(O)cc1)C(=O)N[C@H]1CCC[C@@H]1C(=O)N[C@@H](Cc1ccc(O)cc1)C(=O)N[C@H](C(=O)N[C@H](C(=O)N[C@@H](Cc1ccccc1)C(=O)N[C@@H](Cc1c[nH]cn1)C(=O)N[C@H](C(=O)N[C@@H](C)C(=O)N[C@H](C(N)=O)[C@@H](C)O)C(C)C)[C@@H](C)O)C(C)C", "target": "rep main protease", "assay": "binding, SPR", "measurement": "koff", "result": "0.00373 s⁻¹"}
{"Compound": "CNC(=O)CC1CN(C(=O)c2ccc(C(F)(F)F)cn2)CCN1C(=O)c1cccnn1 (centres unmarked)", "target": "rep main protease", "setting": "0.5229 µM", "measurement": "remaining activity", "result": "103%"}
{"Compound": "O=C(c1cccc(Br)c1)N1CCC(c2ccn3ncc(C(=O)N4CCCCC4)c3c2)CC1", "target": "Replicase polyprotein 1ab, nsp3 macrodomain (rep, Severe acute respiratory syndrome coronavirus 2, UniProt P0DTD1)", "assay": "thermal stabilisation, differential scanning fluorimetry", "setting": "150 µM, SARS-CoV-2", "measurement": "ΔTm", "result": "0.51 ± 0.03 °C"}
{"Compound": "CCn1ccc(-c2cc(C(C)NC(=O)c3cc(N4CC5CC4CN5C)ccc3C)c3ccccc3n2)n1 (centres unmarked)", "target": "rep papain-like protease", "assay": "reporter gene, cell-based", "measurement": "GFP/mCherry signal ratio", "result": "41.1 and 10.5 and 65.9 and 19.6 and 93.7 and 88.1"}
{"Compound": "CC(NC(=O)C(Cc1ccccc1)NC(=O)OCc1ccccc1)C(=O)CF (centres unmarked)", "target": "rep main protease", "assay": "3CL protease activity", "measurement": "maximum inhibition", "result": "88.7%"}
{"Compound": "C[C@](C(=O)NC1CCC(F)(F)CC1)(c1cncnc1)N(C(=O)[C@H](F)Cl)c1ccc(OC(F)(F)F)cc1", "target": "rep main protease", "assay": "enzyme activity, inhibitor", "setting": "25 µM", "measurement": "inhibition", "result": "99%"}
{"Compound": "CCOc1cccc(NC(=O)CSc2cn(C(=O)OC(C)(C)C)c3ccccc23)c1", "target": "Replicase polyprotein 1ab, nsp12 with nsp14/nsp10 (rep, Severe acute respiratory syndrome coronavirus 2, UniProt P0DTD1)", "assay": "SARS-CoV-2 RdRp activity, CoV-Gluc reporter", "test system": "HEK293T", "scale": "reference: with nsp14/nsp10 over nsp12 alone", "measurement": "EC50 ratio", "result": 1.21}
{"Compound": "CCOC(=O)[C@H](C(C)C)n1[se]c2ccccc2c1=O", "target": "rep main protease", "assay": "enzyme activity, inhibitor", "setting": "40 µM, mean of repeats", "measurement": "inhibition", "result": "105%"}
{"Compound": "O=C(NCCc1cccc(F)c1)[C@@H](c1cncnc1)N(C(=O)[C@H](F)Cl)c1ccc(S(F)(F)(F)(F)F)cc1", "target": "rep main protease", "assay": "enzyme activity, inhibitor", "measurement": "kinact/KI", "result": "4170 M⁻¹ s⁻¹"}
{"Compound": "O=C(O)CC[C@H](NC(=O)c1ccccc1[Se][Se]c1ccccc1C(=O)N[C@@H](CCC(=O)O)C(=O)O)C(=O)O", "target": "rep main protease", "assay": "enzyme activity, inhibitor", "setting": "40 µM", "measurement": "inhibition", "result": "20.8% and 25.7%"}
{"Compound": "Nc1ccn([C@@H]2O[C@H](COP(=O)(O)OP(=O)(O)OP(=O)(O)O)[C@@H](O)[C@@H]2O)c(=O)n1", "target": "Replicase polyprotein 1ab, nsp12 RdRp (rep, Severe acute respiratory syndrome coronavirus 2, UniProt P0DTD1)", "assay": "nucleotide incorporation, substrate", "measurement": "Vmax", "result": "0.94 fraction per time"}
{"note": "Some of these lines once more:"}
{"Compound": "O=C(O)CC[C@H](NC(=O)c1ccccc1[Se][Se]c1ccccc1C(=O)N[C@@H](CCC(=O)O)C(=O)O)C(=O)O", "target": "rep main protease", "assay": "enzyme activity, inhibitor", "setting": "40 µM", "measurement": "inhibition", "result": "20.8% and 25.7%"}
{"Compound": "Nc1ccn([C@@H]2O[C@H](COP(=O)(O)OP(=O)(O)OP(=O)(O)O)[C@@H](O)[C@@H]2O)c(=O)n1", "target": "Replicase polyprotein 1ab, nsp12 RdRp (rep, Severe acute respiratory syndrome coronavirus 2, UniProt P0DTD1)", "assay": "nucleotide incorporation, substrate", "measurement": "Vmax", "result": "0.94 fraction per time"}
